Published values from different studies.
± marks the error that the study gave. ≈ marks a conversion by molar mass, not a printed value.
Organism: Escherichia coli

C=CCN1C(=O)C(CC=C)(C(=O)OCC)Oc2cc(F)ccc21 (stereo not drawn)
growth inhibition (BL21(DE3); 100 µM): no inhibition

CC[C@H](C)[C@H](N)C(=O)N[C@@H](CC(C)C)C(=O)N[C@@H](CO)C(=O)N[C@@H](C)C(=O)N[C@@H](C)C(=O)N[C@@H](CCC(=O)O)C(=O)N[C@@H](CO)C(=O)NCC(=O)N[C@H](C(=O)N[C@@H](CS)C(=O)N[C@@H](CO)C(=O)N[C@@H](CC(C)C)C(=O)N[C@H](C(=O)NCCCCCC(=O)N[C@@H](Cc1c[nH]c2ccccc12)C(N)=O)C(C)C)[C@@H](C)CC
relative growth rate (K-12 MG1655, MHB; concentration not given, 37 °C; baseline: untreated): 0.356

CCCC(=O)OCCSC[C@H](N)C(=O)N[C@H](CCN)C(=O)N[C@@H](CCN)C(=O)N[C@@H](CCN)C(=O)N[C@@H](CC(C)C)C(=O)N[C@H](Cc1ccccc1)C(=O)N[C@@H](CCN)C(=O)N[C@@H](CCN)C(=O)N[C@@H](CC(C)C)C(N)=O
MBC (ATCC 10546; 24 h, 37 °C): 16 µM

O=C1C=CC(=O)N1CCCCCCCCCCOCc1cn(CCCCCCCCCCN2C(=O)C=CC2=O)nn1
IC50 (growth, turbidity OD600; ΔtolC; 24 h): > 100 µM

CC(C)C[C@H](NC(=O)[C@H](CCN)NC(=O)[C@H](CCN)NC(=O)[C@@H](Cc1ccccc1)NC(=O)[C@H](CC(C)C)NC(=O)[C@H](CCN)NC(=O)[C@H](CCN)NC(=O)[C@@H](CCN)NC(=O)CCSCCOC(=O)C(C)(C)C)C(N)=O
MBC (ATCC 10546; 24 h, 37 °C): 16 µM

C=C(C)C(=O)NCCCCCCCCOCc1cn(CCCCCCCCNC(=O)C(=C)C)nn1
IC50 (growth, turbidity OD600; ΔtolC; 24 h): > 100 µM

COc1c(NC(=O)c2ccc(NC(=O)c3ccc(NC(=O)[C@H](CC#N)NC(=O)c4ccc(NC(=O)[C@@H](N)Cc5ccccc5)cc4)cc3)c(OC)c2O)ccc(C(=O)O)c1O
MIC fold change (clones expressing AraC family proteins; concentration not given; baseline: empty vector): 8 fold

C=C(C)C(=O)NCCCCCCCCOCc1cn(CCCCCCCCNC(=O)C(=C)C)n[n+]1C
IC50 (growth, turbidity OD600; ΔtolC; 24 h): > 100 µM

COc1ccc2c(c1OC)C[NH+]1CCc3cc4c(cc3C1C2)OCO4.[Cl][Fe-]([Cl])([Cl])[Cl] (stereo not drawn)
MBC (24 h, 37 °C): > 1600 µM

CC[C@H](C)[C@H](NC(=O)[C@H](Cc1ccccc1)NC(=O)[C@H](CCCCN)NC(=O)[C@H](CCCCN)NC(=O)CNC(=O)[C@H](C)NC(=O)[C@H](CC(N)=O)NC(=O)[C@H](CCCCN)NC(=O)[C@H](Cc1ccccc1)NC(=O)[C@H](CC(N)=O)NC(=O)[C@H](CCC(=O)O)NC(=O)[C@H](Cc1c[nH]c2ccccc12)NC(=O)[C@H](CC(C)C)NC(=O)[C@@H](N)CO)C(=O)N[C@@H](CC(C)C)C(=O)N[C@@H](CC(N)=O)C(=O)N[C@H](C(=O)N[C@@H](CC(C)C)C(=O)N[C@@H](CC(=O)O)C(=O)N[C@@H](CCCCN)C(N)=O)[C@@H](C)CC
time to eradication (colony counts; ATCC 8739; 1 x MIC): > 120 min

CC[C@H](C)[C@H](NC(=O)[C@H](CCCCN)NC(=O)[C@H](CCCCN)NC(=O)[C@H](Cc1ccccc1)NC(=O)[C@H](Cc1ccccc1)NC(=O)[C@H](CCCCN)NC(=O)[C@H](CCCCN)NC(=O)[C@H](Cc1ccccc1)NC(=O)[C@H](CCCNC(=N)N)NC(=O)[C@@H](N)CCCCN)C(=O)N[C@@H](CCCCN)C(=O)N[C@@H](CCCCN)C(=O)N[C@@H](CO)C(=O)N[C@H](C(=O)N[C@@H](CCCCN)C(=O)N[C@@H](CCCCN)C(=O)N[C@@H](CCCNC(=N)N)C(=O)N[C@H](C(=O)N[C@@H](CCCCN)C(=O)N[C@@H](CCCCN)C(=O)N[C@@H](CC(C)C)C(=O)N[C@@H](Cc1ccccc1)C(=O)N[C@@H](CCCCN)C(=O)N[C@@H](CCCCN)C(=O)N1CCC[C@H]1C(=O)N[C@@H](CCCNC(=N)N)C(=O)N[C@H](C(=O)N[C@H](C(=O)N1CCC[C@H]1C(=O)N[C@H](C(=O)N[C@@H](CO)C(=O)N[C@H](C(=O)N1CCC[C@H]1C(=O)N[C@@H](Cc1ccccc1)C(=O)O)[C@@H](C)CC)[C@@H](C)CC)[C@@H](C)CC)C(C)C)C(C)C)C(C)C
MBC (E27 clinical isolate; 20 h): 4 µg/mL

CCC(=O)OCCSCCC(=O)N[C@H](CCN)C(=O)N[C@@H](CCN)C(=O)N[C@@H](CCN)C(=O)N[C@@H](CC(C)C)C(=O)N[C@H](Cc1ccccc1)C(=O)N[C@@H](CCN)C(=O)N[C@@H](CCN)C(=O)N[C@@H](CC(C)C)C(N)=O
MBC (ATCC 10546; 24 h, 37 °C): 32 µM

CN(C)S(=O)(=O)c1ccc(S(=O)(=O)N2CCC(n3c(=O)[nH]c4ccccc43)CC2)cc1
streptomycin concentration (Keio wild type; concentration not given, 72 h): 3.92 µg/mL

CC[C@H](C)[C@H](NC(=O)[C@H](CC(C)C)NC(=O)[C@H](CC(=O)O)NC(=O)[C@H](CCCNC(=N)N)NC(=O)[C@H](Cc1c[nH]c2ccccc12)NC(=O)[C@@H](N)CC(C)C)C(=O)N[C@@H](CS)C(=O)N[C@@H](CC(C)C)C(=O)N[C@@H](CS)C(=O)N[C@@H](CCCNC(=N)N)C(=O)N[C@@H](CC(N)=O)C(=O)N[C@@H](CCCNC(=N)N)C(=O)N[C@@H](CCCNC(=N)N)C(=O)N[C@@H](CS)C(=O)N[C@@H](CC(N)=O)C(=O)N[C@@H](CCCNC(=N)N)C(=O)NCC(=O)N[C@@H](CCC(N)=O)C(=O)N[C@@H](CC(C)C)C(=O)N[C@@H](Cc1ccccc1)C(=O)N1CCC[C@H]1C(=O)NCC(=O)N[C@@H](Cc1c[nH]c2ccccc12)C(=O)N[C@@H](CS)C(=O)N1CCC[C@H]1C(=O)NCC(=O)N[C@@H](Cc1c[nH]c2ccccc12)C(=O)N[C@@H](Cc1c[nH]c2ccccc12)C(=O)N[C@@H](CC(C)C)C(=O)N[C@@H](CCCNC(=N)N)C(=O)N[C@@H](CS)C(=O)N[C@@H](CS)C(=O)N[C@@H](CCCNC(=N)N)C(=O)N[C@@H](CCCNC(=N)N)C(N)=O
bactericidal rate (colony count; PBS; 20 µg/mL, 2 h): 96.6%

C#CCCCC(=O)N[C@H]1CCOC1=O
inhibition (LuxR reporter, antagonist; DH5α sensor strain; 40 µM, added: OHHL 200 nM): 60%

O=CCNCCOn1c(=O)n(OCCNCCO)c(=O)n(OCCNCCOn2c(=O)n(OCCNCCO)c(=O)n(OCCNCCO)c2=O)c1=O
MLC (broth microdilution): 4 ± 2 µg/mL (≈ 5.2 µM)

C=CC(=O)NCCCCCCCCCCOCc1cn(CCCCCCCCCCNC(=O)C=C)nn1
IC50 (growth, turbidity OD600; ΔtolC; 24 h): > 100 µM

CC[C@H](C)CCCCC(=O)N[C@@H](CCN)C(=O)N[C@H](C(=O)N[C@@H](CCN)C(=O)N[C@H]1CCNC(=O)[C@H]([C@@H](C)O)NC(=O)[C@H](CCN)NC(=O)[C@H](CCN)NC(=O)[C@H](CC(C)C)NC(=O)[C@@H](CC(C)C)NC(=O)[C@H](CCN)NC1=O)[C@@H](C)O
MIC fold change (daily serial passaging; ATCC 8739; highest sub-MIC, 18 days; baseline: initial MIC): 2.37

O=C1C=CC(=O)N1CCCCCCOCc1cn(CCCCCCN2C(=O)C=CC2=O)nn1
IC50 (growth, turbidity OD600; ΔtolC; 24 h): > 100 µM

O=C(O)CN(CC(=O)O)CP(=O)(O)O
fold MIC reduction (VIM-2 producer; 32 µg/mL, added: meropenem; baseline: meropenem alone): 64

CC[C@H](C)[C@H](NC(=O)[C@H](C)NC(=O)CNC(=O)[C@H](C)NC(=O)[C@H](CCCCN)NC(=O)[C@H](CO)NC(=O)[C@H](C)NC(=O)[C@H](CCSC)NC(=O)CN)C(=O)N[C@@H](C)C(=O)NCC(=O)N[C@@H](CCCCN)C(=O)N[C@H](C(=O)N[C@@H](C)C(=O)N[C@@H](CCCCN)C(=O)N[C@H](C(=O)N[C@@H](C)C(=O)N[C@@H](CC(C)C)C(=O)N[C@@H](CCCCN)C(=O)N[C@@H](C)C(=O)N[C@@H](CC(C)C)C(N)=O)C(C)C)[C@@H](C)CC
combination index (CFT073 wild type; added: nalidixic acid): 1.08

O=C(O)CCc1c(C(=O)O)[nH]c2ccccc12
MIC of meropenem (DH5α with VIM-2 plasmid; 10 µg/mL, added: meropenem): 2 µg/mL

CO[C@@H](C(N)=O)[C@H](NC(=O)c1ccc(NC(=O)[C@@H](N)Cc2ccccc2)cc1)C(=O)Nc1ccc(C(=O)Nc2ccc(C(=O)Nc3ccc(C(=O)O)c(O)c3OC(C)C)c(O)c2OC(C)C)cc1
MIC fold change (clones expressing AraC family proteins; concentration not given; baseline: empty vector): ≤ 4 fold

CC(=O)NC[C@H]1CN(c2ccc(N3CCN(C(=O)CN)CC3)c(F)c2)C(=O)O1
MIC activity class (broth dilution; drug-resistant; concentration not given): inactive

A few entries again:
CCCC(=O)OCCSC[C@H](N)C(=O)N[C@H](CCN)C(=O)N[C@@H](CCN)C(=O)N[C@@H](CCN)C(=O)N[C@@H](CC(C)C)C(=O)N[C@H](Cc1ccccc1)C(=O)N[C@@H](CCN)C(=O)N[C@@H](CCN)C(=O)N[C@@H](CC(C)C)C(N)=O
MBC (ATCC 10546; 24 h, 37 °C): 16 µM
